Experimental data pooled from the literature.
Parts stem from different laboratories: compare values within a part only.

Sample 1 — technique: RNA Bind-n-Seq; form: RNA; medium: in vitro; tested at: 365 nM; baseline: no-protein control; reading: higher = stronger binding
Target: RNA binding protein fox-1 homolog 2, RRM domain, GST-SBP tag (RBFOX2, Homo sapiens, UniProt O43251-10, residues 100-194)
Notes: natural RNA segment, single round, ends assumed
Shared flanks, not repeated: GGGAGUUCUACAGUCCGACGAUC … UGGAAUUCUCGGGUGCCAA
Target sequence (chain): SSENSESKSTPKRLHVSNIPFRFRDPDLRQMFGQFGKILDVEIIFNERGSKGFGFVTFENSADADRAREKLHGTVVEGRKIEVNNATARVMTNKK
Strand	RBNS enrichment (R)
AAUUUAGUUAUCAAUUCAAUAUAGCUCUGUUGAUUAAAUAGCCGAUAGUAUUGUGGCUCUCCUCUUUGACUAUGAAAAUAUAGAGAAAGUUUUUUCUUUAAGGCUUUUUU	0.309
CGUUCAGGAAGUUUUUAGCUCUGUACUUGCAUGGUGUUGUGUGAACUAAGAACUUUCUGGAGCCUGGUGCCCUACUACCUUCCUGCCUCAGAAGAGCUCAUGUCCUGGGA	36.2
ACUUACAGUACACCUGACUUGGAAGACCCUUUUGAGUUCAAGGCAGAGUGUGCAAUGUUGAAAUGGAGCAGUAGGUGCUGAGGACUUCCACUACCAUUGUAGAUCCCCUU	0.369
AUAGAAACUUAGGCACUUUGCUGACUCCUUUCUGAACUAUCAGACUGGCCAUUUGAAAGCCUAGUAUUUAUUUGUAUGUCAAUAUUUGCCCAGUUGAUGUCCUAUGUAGA	0.433
UAUUACCAAGCGAGUGUUUGUAACCAUGUAGUUUUGGAACCCACUGCAAAAUUUUCUACUGGCCAAGUUCAAGUGAGUAAGCCGCGUCCCCCAACUACAGCUGGAGACGG	0.251

Sample 2 — technique: competition protein-binding microarray; form: double-stranded DNA, one strand shown; medium: in vitro; tested at: 2 µM; together with: Cbf1 competitor, 0.05 µM; reading: higher = stronger binding
Target: Phosphate system positive regulatory protein PHO4, full length, GST-tagged (PHO4, Saccharomyces cerevisiae, UniProt P07270, residues 1-312)
Notes: whole 60-bp probe, lowest competitor level
Target sequence (chain): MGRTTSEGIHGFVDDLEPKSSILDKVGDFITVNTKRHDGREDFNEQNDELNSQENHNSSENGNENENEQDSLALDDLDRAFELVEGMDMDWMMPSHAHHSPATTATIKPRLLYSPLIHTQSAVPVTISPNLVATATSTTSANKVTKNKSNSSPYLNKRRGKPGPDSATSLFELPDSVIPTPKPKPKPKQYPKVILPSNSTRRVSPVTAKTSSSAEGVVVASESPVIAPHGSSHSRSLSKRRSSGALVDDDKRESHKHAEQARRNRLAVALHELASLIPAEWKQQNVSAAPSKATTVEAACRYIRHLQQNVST
Strand	fluorescence intensity
AAGAGCAAGTTGTTACACGTGTGAATCTGGCACATTGTCTTGATTCGCTTGACGCTGCTG	14600 a.u.
CGCGTTTCTTTGTTCCACGTGCTAAGCGCCTCTCTTGTCTTGATTCGCTTGACGCTGCTG	17800 a.u.
CTAACGAAGGTTTGTAAGGTGGGTGACAAGCCAAGTGTCTTGATTCGCTTGACGCTGCTG	3760 a.u.
ATAAGCCAGAATCCACACGGGAACTTCGGACTTTGCGTCTTGATTCGCTTGACGCTGCTG	5160 a.u.

Sample 3 — technique: RNAcompete; form: RNA; medium: in vitro; tested at: 20 nM; notes: 7-mer, probes averaged, single round; baseline: mean of 7-mers; reading: higher = stronger binding
Target: PABPC1L2, full length, GST fusion (mouse, UniProt A0ABA7IW68)
Target sequence (chain): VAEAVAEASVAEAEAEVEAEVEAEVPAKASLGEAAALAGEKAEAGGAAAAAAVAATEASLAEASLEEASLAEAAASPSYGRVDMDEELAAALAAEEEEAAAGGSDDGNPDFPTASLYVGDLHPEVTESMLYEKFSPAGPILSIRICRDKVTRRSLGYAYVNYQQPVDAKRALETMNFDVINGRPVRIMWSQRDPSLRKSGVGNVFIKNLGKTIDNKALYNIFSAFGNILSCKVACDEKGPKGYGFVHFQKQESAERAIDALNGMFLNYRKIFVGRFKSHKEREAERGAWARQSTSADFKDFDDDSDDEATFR
Strand	7-mer Z-score
CCUUGAU	-0.249
GAAUUCA	-0.0554
AGAGGUG	0.202
AUCAUCU	-0.248
UUACCAU	-0.278

Single results of other studies
Substance	target	assay	system	conditions	scale	measurement	value
PhoQ, residues 284 288 289 292 302 303 SSLVEF	PhoP, residues 12 14 15 18 19 NQGLL (Escherichia coli, UniProt P23836)	Sort-seq, refers to: YFP reporter	E. coli	PhoQ-PhoP variant library, together with: 10 µM Mg2+	baseline: high Mg2+ state, higher = stronger signaling	fold induction	2.5

For quick reference, copied from above (sample 3):
Strand	7-mer Z-score
AGAGGUG	0.202
